Measured values from different studies.
Each numbered part is a random draw from the data of one study; scales do not carry over between parts.
Sequence of UniProt Q9Y616 (whole entry, looked up): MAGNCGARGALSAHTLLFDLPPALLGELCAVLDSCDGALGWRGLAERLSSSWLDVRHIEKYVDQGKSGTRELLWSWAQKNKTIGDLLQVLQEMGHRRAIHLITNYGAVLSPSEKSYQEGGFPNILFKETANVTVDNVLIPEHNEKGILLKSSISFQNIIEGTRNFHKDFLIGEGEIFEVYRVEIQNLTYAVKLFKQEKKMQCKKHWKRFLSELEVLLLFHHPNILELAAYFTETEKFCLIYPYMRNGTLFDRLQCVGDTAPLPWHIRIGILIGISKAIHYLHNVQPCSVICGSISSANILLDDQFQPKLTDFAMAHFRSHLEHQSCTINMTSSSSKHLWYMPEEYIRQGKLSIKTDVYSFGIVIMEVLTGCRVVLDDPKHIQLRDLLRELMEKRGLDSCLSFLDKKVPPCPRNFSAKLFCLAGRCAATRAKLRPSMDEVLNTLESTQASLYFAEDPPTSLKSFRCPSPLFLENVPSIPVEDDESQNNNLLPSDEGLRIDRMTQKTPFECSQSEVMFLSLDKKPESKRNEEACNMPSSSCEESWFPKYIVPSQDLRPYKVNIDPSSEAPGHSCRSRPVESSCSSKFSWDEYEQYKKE
Sequence of UniProt O60331 (whole entry, looked up): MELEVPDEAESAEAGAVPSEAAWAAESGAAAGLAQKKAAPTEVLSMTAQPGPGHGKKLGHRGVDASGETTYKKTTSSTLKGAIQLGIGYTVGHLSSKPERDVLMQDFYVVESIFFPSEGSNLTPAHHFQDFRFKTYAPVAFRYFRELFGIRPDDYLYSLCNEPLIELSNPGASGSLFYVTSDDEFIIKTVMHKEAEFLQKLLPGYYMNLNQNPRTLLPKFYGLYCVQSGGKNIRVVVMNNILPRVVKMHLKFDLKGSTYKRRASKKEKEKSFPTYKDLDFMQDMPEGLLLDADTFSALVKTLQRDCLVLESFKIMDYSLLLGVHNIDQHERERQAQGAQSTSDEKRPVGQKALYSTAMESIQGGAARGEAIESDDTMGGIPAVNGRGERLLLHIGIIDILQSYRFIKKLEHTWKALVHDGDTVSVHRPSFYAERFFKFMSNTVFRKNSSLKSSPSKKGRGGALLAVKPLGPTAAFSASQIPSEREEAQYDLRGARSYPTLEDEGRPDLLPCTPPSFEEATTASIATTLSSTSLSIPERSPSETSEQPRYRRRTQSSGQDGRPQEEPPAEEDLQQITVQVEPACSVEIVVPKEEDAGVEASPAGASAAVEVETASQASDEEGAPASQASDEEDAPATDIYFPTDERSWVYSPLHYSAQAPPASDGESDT
Sequence of UniProt Q15208 (whole entry, looked up): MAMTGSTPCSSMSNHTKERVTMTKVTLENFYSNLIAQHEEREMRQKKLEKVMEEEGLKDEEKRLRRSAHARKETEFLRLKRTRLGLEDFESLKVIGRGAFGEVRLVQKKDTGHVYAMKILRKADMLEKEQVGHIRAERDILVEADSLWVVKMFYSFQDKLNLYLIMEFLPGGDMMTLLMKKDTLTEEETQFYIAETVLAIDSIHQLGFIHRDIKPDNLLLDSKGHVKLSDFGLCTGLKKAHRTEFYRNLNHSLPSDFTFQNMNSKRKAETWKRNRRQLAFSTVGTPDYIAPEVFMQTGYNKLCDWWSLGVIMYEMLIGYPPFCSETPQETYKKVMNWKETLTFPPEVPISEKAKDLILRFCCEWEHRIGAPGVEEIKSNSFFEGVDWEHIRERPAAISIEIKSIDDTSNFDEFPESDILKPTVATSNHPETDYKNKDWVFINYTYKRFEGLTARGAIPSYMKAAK
Sequence of UniProt Q96GD4 (whole entry, looked up): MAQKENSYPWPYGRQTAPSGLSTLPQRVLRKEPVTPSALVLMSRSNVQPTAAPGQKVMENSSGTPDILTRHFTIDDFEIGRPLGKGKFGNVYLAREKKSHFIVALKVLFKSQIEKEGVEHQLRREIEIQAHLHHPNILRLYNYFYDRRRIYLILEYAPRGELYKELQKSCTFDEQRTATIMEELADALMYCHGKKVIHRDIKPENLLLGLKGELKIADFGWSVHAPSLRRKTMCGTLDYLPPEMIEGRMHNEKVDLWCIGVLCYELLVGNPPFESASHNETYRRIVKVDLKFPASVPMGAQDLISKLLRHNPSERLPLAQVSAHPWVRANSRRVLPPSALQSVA
Sequence of UniProt Q8N752 (whole entry, looked up): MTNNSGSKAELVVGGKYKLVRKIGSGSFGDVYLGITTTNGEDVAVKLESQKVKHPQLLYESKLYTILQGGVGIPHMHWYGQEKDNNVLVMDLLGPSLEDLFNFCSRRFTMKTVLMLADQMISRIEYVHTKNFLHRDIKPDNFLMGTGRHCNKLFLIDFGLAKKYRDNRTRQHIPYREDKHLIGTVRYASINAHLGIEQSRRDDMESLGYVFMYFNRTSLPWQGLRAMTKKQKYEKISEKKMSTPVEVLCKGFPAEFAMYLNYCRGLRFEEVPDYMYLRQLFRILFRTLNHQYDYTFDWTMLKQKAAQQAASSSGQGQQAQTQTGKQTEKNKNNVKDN
Sequence of UniProt O15264 (whole entry, looked up): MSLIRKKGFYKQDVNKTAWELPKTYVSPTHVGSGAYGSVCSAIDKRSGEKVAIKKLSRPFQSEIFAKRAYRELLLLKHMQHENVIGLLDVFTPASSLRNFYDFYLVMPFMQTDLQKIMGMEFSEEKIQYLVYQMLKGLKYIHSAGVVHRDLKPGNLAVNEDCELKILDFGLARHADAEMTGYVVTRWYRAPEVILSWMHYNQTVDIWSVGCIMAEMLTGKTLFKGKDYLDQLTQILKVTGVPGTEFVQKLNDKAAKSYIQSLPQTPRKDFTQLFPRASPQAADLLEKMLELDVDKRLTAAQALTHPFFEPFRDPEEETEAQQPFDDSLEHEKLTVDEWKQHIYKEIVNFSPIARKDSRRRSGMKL
Sequence of UniProt Q8WXR4 (whole entry, looked up): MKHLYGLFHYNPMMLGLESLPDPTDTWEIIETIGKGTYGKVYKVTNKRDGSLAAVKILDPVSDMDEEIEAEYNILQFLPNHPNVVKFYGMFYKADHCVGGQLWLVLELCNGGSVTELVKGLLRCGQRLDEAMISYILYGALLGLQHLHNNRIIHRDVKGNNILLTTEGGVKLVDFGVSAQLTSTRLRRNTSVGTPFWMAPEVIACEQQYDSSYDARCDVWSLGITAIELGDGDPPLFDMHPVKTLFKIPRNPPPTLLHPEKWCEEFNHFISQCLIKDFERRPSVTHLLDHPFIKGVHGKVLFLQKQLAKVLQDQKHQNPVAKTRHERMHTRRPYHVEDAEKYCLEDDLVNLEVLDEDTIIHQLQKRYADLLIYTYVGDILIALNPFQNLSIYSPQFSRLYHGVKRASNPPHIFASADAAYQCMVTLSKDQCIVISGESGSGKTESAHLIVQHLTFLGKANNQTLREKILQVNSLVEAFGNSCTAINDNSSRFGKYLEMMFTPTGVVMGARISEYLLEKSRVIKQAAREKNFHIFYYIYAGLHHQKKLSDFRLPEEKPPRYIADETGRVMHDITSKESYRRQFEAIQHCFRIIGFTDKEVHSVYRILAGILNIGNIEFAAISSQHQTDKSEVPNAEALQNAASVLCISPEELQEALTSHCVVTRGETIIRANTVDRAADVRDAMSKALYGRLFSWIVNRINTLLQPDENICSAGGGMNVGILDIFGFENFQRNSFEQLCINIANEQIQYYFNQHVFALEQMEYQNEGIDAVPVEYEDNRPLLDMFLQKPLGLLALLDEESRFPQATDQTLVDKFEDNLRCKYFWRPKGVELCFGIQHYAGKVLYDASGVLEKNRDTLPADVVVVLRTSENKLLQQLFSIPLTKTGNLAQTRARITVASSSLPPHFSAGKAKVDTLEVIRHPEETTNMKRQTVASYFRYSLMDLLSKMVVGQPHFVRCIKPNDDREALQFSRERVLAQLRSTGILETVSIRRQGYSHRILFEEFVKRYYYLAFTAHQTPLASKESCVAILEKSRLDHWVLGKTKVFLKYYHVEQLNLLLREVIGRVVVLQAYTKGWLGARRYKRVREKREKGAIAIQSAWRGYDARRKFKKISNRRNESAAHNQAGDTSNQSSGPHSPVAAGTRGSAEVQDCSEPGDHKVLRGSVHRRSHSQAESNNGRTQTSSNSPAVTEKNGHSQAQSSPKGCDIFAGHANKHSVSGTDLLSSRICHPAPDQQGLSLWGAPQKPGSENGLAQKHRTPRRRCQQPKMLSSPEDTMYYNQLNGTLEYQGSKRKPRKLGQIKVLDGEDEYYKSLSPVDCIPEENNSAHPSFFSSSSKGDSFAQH

Block 1
Cell line: Huh-7
Concentration: 10 µM
Time: 24 h
SMILES | viability
CCCNC(C)C(=O)Nc1ccccc1C (stereo not shown) | 104%
CCCc1cc(=O)[nH]c(=S)[nH]1 | 105%
CN(C)CCc1c[nH]c2ccc(Cn3cncn3)cc12 | 92.3%
C/C(=C\C(=O)OCCCCCCCCC(=O)O)C[C@@H]1OC[C@H](C[C@@H]2O[C@H]2[C@@H](C)[C@H](C)O)[C@@H](O)[C@H]1O | 98.5%
CCCCCCCCN[C@@H](C)[C@H](O)c1ccc(SC(C)C)cc1 (racemic) | 82.2%
c1ccc(-c2ccc(C(c3ccccc3)n3ccnc3)cc2)cc1 (stereo not shown) | 83.4%
CC(C)/N=c1\cc2n(-c3ccc(Cl)cc3)c3ccccc3nc-2cc1Nc1ccc(Cl)cc1 | 88.5%
O=C1OC2(c3ccc(O)cc3Oc3cc(O)ccc32)c2ccccc21 | 99.6%
Cc1c(N(C)C)c(=O)n(-c2ccccc2)n1C | 106%
CCCCCCCCCCC[C@@H](C[C@@H]1OC(=O)[C@H]1CCCCCC)OC(=O)[C@H](CC(C)C)NC=O | 96%
O=C(CCCN1CCC(O)(c2ccc(Br)cc2)CC1)c1ccc(F)cc1 | 95.9%
CC(=O)Nc1ccc(OCC(O)CNC(C)C)cc1 (stereo not shown) | 103%

Block 2
Cell line: mouse MPNST tumor cells
Technique: high-content nuclear imaging
Measured: cell number
Concentration: 10 µM
Time: 12 h
Notes: mean of 2 replicates
Relative to: plate mean
Reading: higher = more cells
Structure (SMILES) | nuclei count [z-score]
CC(C)(Sc1ccc(CCN(CCCCC2CCCCC2)C(=O)NC2CCCCC2)cc1)C(=O)O | 0.824
CN[C@@H]1[C@H](O[C@H]2[C@H](O[C@H]3[C@H](O)[C@@H](O)[C@H](NC(=N)N)[C@@H](O)[C@@H]3NC(=N)N)O[C@@H](C)[C@]2(O)CO)O[C@@H](CO)[C@H](O)[C@H]1O | 0.445
COc1cccc(/C=N/N(C(=O)C(F)(F)F)c2ccc(C)cc2C)c1 | -0.00547
O=C1c2ccccc2C(=O)C1c1ccccc1 | -0.172
CC(=C(CCO)SSCC1CCCO1)N(C=O)Cc1cnc(C)nc1N (stereo in doubt) | -0.324
COc1cc2c(cc1-c1c(C)noc1C)ncc1[nH]c(=O)n([C@H](C)c3ccccn3)c12 | -2.33

Block 3
SMILES: CCCCN(CCCC)C(=O)CN1C[C@@H](c2cc(OC)c3c(c2)OCO3)[C@H](C(=O)O)[C@H]1CC(C)(C)CCC
Concentration: 1 µM
target | test | conditions | how to read | remaining binding [%]
PIP5K1C (Homo sapiens, UniProt O60331) | cell-free assay, competition with immobilised ligand | – | – | 100
Aurora kinase B (AURKB, Homo sapiens, UniProt Q96GD4) | cell-free assay, competition with immobilised ligand | – | – | 100
CSNK1A1L (Homo sapiens, UniProt Q8N752) | cell-free assay, competition with immobilised ligand | – | – | 91.1
RIPK4 (Homo sapiens, UniProt P57078) | cell-free assay, competition with immobilised ligand | – | – | 77.2
CSF1R (Homo sapiens, UniProt P07333) | cell-free assay, competition with immobilised ligand | – | – | 86.7
MAPK13 (Homo sapiens, UniProt O15264) | cell-free assay, competition with immobilised ligand | – | – | 100
EGFR (Homo sapiens, UniProt P00533, del747-750/T751S) | cell-free assay, competition with immobilised ligand | – | – | 100
MAPK7 (Homo sapiens, UniProt Q13164) | cell-free assay, competition with immobilised ligand | – | – | 100
Myosin-IIIb (MYO3B, Homo sapiens, UniProt Q8WXR4) | cell-free assay, competition with immobilised ligand | – | – | 91
STK38 (Homo sapiens, UniProt Q15208) | cell-free assay, competition with immobilised ligand | – | – | 95.2
IRAK3 (Homo sapiens, UniProt Q9Y616) | cell-free assay, competition with immobilised ligand | – | – | 85
ABL1 (Homo sapiens, UniProt P00519, E255K) | KINOMEscan | E255K mutant, phosphorylated | relative to: control | 93.5
PRKCQ (Homo sapiens, UniProt Q04759) | cell-free assay, competition with immobilised ligand | – | – | 78.6

Block 4
Target: SRSF protein kinase 2 (SRPK2, Homo sapiens, UniProt P78362)
Sequence of UniProt P78362 (whole entry, looked up): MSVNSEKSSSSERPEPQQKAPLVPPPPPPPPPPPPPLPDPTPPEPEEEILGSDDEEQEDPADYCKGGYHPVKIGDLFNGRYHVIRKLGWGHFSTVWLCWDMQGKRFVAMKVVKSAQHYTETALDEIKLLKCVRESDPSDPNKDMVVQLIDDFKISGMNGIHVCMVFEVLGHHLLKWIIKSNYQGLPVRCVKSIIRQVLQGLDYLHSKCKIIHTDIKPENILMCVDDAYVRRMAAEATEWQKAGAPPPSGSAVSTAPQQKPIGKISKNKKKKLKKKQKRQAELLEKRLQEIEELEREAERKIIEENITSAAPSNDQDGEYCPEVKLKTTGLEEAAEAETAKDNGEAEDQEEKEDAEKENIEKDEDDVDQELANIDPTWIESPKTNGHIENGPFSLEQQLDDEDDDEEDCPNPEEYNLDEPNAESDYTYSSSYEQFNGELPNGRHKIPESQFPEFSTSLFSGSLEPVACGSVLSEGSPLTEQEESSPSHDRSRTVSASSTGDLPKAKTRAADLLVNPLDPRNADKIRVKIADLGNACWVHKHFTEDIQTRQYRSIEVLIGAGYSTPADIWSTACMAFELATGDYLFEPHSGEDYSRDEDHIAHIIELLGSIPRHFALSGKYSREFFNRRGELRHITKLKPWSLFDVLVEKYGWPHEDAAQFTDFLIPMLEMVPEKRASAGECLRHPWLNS
Effect on: enzyme activity
Action: inhibitor
Concentration: 0.5 µM
Relative to: control
Compound | remaining activity
O=c1cc(-c2cccc3c2Sc2ccccc2S3)oc(N2CCOCC2)c1 | 110%
O=C1c2ccccc2-c2n[nH]c3cccc1c23 | 86.1%
CCN(CC)CCNC(=O)c1c(C)[nH]c(/C=C2\C(=O)Nc3ccc(F)cc32)c1C | 95%
c1ccc(-c2[nH]ncc2-c2ccnc3ccccc23)nc1 | 97.2%
CCN(CC)CCNC(=O)c1c(C)[nH]c(/C=C2\C(=O)Nc3ccc(Cl)cc32)c1C | 93.7%
O=C1C(Cl)=C(N2C(=O)CCC2=O)C(=O)c2ccccc21 | 100%
COc1cc2ncnc(Nc3ccc(O)c(Br)c3)c2cc1OC | 63%
N#C/C(=C\c1ccc(O)c(O)c1)C(=O)NCc1ccccc1 | 96.6%
CCN(CC)C(=O)c1ccc(Nc2nc(OCC3CCCCC3)c3[nH]cnc3n2)cc1 | 87.8%
CN(C)C[C@H]1CCn2c(c(C3=C(c4cn(C)c5ccccc45)C(=O)NC3=O)c3ccccc32)C1 | 91.5%
COc1cc2ncnc(Nc3cccc(Cl)c3)c2cc1OC | 88.2%
Cn1nc2c3c(cccc31)C(=O)c1ccccc1-2 | 97.2%

A few entries again (block 3):
target | test | conditions | how to read | remaining binding [%]
MAPK7 (Homo sapiens, UniProt Q13164) | cell-free assay, competition with immobilised ligand | – | – | 100
Myosin-IIIb (MYO3B, Homo sapiens, UniProt Q8WXR4) | cell-free assay, competition with immobilised ligand | – | – | 91
STK38 (Homo sapiens, UniProt Q15208) | cell-free assay, competition with immobilised ligand | – | – | 95.2
